Experimental data of several laboratories.
Lines come from different studies, so protocols differ. ± marks the error that the study gave.
Glutamate receptor ionotropic, kainate 3: Glutamate receptor ionotropic, kainate 3 (Rattus norvegicus, UniProt P42264)
MAPK8: Mitogen-activated protein kinase 8 (MAPK8, Homo sapiens, UniProt P45983)
PRKCD: Protein kinase C delta type (PRKCD, Homo sapiens, UniProt Q05655)

Amino acid sequences for entries named in this document (tags omitted). Residues count along the entry.
UniProt P42264, 32-919 limits assumed: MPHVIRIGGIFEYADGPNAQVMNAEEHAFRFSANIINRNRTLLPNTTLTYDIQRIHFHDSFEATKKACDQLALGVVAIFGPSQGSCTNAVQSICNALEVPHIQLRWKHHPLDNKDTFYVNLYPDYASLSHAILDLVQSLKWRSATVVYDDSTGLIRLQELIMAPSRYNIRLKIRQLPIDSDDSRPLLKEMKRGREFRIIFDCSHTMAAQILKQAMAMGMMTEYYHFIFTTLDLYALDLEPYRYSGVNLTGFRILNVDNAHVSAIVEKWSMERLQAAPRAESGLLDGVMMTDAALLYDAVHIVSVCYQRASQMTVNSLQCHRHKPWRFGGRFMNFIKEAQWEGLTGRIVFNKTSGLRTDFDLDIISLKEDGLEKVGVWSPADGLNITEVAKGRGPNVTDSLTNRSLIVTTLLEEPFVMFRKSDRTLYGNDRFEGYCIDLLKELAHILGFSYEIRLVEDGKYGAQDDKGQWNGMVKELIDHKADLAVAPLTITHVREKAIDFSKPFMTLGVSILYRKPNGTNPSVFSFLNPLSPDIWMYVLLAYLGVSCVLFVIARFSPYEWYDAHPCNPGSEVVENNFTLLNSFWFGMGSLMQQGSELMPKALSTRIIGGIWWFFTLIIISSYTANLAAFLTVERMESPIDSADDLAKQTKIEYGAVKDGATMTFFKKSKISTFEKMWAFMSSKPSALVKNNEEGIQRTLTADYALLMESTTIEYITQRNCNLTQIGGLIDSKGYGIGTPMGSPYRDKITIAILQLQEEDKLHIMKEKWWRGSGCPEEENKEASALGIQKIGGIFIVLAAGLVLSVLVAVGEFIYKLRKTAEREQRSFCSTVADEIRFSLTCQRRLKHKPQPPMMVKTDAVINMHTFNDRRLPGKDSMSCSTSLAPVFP
UniProt P45983, whole entry: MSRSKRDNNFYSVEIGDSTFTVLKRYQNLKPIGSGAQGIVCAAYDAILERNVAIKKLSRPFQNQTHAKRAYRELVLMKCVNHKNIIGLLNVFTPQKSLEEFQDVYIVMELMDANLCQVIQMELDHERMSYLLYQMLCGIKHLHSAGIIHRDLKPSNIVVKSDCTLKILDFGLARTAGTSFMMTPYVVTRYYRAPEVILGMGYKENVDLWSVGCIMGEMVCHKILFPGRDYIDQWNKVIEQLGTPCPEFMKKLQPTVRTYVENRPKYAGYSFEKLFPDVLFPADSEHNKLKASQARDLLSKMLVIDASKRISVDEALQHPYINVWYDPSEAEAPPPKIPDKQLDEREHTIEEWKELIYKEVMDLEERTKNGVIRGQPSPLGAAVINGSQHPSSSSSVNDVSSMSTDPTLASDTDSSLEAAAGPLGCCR
UniProt P45983, 1-384 isoform 3: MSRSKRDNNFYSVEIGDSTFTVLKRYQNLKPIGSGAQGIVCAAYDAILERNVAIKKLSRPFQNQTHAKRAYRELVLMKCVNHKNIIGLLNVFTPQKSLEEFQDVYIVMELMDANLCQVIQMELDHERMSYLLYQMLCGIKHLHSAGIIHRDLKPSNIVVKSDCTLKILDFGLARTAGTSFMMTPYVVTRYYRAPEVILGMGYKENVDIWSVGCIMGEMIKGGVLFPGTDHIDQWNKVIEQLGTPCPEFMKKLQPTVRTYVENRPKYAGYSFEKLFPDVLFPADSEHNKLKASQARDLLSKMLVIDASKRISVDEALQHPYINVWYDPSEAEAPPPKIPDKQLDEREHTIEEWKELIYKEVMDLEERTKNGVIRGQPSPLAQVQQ
UniProt Q05655, whole entry: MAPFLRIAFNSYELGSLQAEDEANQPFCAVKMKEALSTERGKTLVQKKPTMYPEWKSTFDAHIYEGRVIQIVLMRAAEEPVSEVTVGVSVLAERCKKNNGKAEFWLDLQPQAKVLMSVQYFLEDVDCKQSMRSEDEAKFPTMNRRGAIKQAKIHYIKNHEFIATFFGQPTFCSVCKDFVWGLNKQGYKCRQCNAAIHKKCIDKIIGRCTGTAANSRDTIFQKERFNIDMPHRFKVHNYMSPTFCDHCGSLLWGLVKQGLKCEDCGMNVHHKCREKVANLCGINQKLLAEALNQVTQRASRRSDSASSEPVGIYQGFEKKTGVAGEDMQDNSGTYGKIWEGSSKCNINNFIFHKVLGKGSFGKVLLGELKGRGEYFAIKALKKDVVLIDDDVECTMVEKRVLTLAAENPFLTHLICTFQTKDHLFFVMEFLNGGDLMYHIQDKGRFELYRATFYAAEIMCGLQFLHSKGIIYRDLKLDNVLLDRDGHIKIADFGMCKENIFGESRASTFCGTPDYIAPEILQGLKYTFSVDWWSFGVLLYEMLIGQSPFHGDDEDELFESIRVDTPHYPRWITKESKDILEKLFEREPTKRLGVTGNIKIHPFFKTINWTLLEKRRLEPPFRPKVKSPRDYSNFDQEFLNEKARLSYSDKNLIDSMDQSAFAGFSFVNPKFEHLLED
UniProt P14416, whole entry: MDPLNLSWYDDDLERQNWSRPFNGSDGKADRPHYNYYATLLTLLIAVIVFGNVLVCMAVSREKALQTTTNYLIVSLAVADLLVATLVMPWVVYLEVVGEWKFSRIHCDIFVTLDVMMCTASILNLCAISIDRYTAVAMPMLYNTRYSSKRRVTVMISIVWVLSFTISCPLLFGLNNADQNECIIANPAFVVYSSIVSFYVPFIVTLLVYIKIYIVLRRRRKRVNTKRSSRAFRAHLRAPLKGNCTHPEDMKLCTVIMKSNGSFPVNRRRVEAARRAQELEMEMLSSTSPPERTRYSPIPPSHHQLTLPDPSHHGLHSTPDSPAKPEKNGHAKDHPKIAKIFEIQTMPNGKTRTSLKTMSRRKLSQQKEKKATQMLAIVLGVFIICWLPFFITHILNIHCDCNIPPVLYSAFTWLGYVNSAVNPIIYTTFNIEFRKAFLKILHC
UniProt Q9R0C9, whole entry: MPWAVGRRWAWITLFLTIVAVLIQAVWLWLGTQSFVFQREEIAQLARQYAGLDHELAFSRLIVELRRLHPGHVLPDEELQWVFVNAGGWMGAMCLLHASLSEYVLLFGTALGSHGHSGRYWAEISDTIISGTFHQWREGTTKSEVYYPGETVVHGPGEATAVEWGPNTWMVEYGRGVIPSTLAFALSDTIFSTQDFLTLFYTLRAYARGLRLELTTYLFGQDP
UniProt P14174, 2-115 limits assumed: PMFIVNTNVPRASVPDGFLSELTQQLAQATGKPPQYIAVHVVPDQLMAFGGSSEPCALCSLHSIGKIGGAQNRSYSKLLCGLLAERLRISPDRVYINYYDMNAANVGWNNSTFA
UniProt Q16539, whole entry: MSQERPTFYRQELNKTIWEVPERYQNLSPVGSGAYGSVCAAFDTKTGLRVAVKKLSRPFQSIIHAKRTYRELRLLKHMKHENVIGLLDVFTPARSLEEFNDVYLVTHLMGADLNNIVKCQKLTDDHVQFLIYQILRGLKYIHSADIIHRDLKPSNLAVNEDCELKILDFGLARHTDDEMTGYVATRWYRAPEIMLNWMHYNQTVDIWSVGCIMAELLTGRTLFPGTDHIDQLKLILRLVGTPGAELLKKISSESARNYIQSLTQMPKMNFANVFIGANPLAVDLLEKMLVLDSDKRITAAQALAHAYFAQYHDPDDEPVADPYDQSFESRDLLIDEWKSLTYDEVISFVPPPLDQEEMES
UniProt Q04609, whole entry: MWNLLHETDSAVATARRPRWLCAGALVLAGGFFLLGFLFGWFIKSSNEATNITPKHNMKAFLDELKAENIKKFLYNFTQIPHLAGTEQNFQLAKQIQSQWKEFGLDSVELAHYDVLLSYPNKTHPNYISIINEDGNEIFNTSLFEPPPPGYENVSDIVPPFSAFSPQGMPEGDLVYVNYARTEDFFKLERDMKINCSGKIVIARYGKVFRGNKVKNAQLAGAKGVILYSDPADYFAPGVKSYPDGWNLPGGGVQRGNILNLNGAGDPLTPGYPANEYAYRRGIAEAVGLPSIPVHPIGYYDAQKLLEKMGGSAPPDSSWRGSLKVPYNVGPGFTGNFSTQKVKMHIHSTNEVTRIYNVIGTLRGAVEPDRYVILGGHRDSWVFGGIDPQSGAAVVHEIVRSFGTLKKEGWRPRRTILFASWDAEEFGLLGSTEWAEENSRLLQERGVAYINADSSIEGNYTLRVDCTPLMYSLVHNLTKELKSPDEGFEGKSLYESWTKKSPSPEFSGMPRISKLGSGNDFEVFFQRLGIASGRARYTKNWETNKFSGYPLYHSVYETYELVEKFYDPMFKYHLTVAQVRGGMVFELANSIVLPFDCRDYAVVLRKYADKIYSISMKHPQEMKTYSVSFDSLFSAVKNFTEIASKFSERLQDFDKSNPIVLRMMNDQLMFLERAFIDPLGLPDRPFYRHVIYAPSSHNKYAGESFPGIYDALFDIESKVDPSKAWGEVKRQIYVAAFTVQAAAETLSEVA
UniProt Q9EP80, whole entry: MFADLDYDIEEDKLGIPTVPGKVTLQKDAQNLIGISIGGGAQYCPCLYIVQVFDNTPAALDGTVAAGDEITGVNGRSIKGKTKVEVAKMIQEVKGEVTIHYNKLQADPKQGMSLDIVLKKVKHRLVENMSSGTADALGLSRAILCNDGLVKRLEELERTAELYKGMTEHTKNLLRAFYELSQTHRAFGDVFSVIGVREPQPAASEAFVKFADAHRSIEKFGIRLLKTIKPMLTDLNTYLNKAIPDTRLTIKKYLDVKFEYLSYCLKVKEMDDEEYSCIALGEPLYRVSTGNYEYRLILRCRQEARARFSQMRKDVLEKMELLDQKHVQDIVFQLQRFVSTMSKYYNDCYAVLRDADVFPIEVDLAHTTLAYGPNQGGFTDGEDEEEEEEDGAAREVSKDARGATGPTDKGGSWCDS
UniProt P30419, whole entry: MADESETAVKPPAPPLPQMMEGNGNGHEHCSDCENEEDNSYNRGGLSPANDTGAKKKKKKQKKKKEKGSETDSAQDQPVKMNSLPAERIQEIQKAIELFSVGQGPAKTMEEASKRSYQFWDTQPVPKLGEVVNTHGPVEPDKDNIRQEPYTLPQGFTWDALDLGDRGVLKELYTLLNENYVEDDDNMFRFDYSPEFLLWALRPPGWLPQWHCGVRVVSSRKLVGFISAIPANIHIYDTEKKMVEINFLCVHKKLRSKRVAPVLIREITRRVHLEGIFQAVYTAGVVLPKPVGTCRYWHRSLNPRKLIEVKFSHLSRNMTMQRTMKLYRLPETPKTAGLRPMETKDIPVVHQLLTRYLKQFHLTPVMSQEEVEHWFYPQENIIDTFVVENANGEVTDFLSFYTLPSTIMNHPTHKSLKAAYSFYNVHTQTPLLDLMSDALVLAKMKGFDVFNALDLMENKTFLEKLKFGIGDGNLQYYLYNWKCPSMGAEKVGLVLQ

`O=C(O)c1cc(C(=O)N[C@@H](Cc2c[nH]c3ccccc23)C(=O)O)cc([C@H]2CCN[C@@H]2C(=O)O)c1` has a Ki of 10 to 50 µM (Glutamate receptor ionotropic, kainate 3; binding, radioligand binding; Sf9 membranes; homomeric receptor, added: [3H]kainate).
`O[C@@H](c1ccc(F)cc1)C(F)(F)CCN1CCC(O)(c2ccc(Cl)cc2)CC1` (racemic) gave a Ki of 23.7 ± 3.71 µM (D(2) dopamine receptor, long isoform (DRD2, Homo sapiens, UniProt P14416)).
With `C/C(=N\OCCNCC1CC1)c1ccc(C(F)(F)F)cc1` the Ki was 0.183 ± 0.00891 µM (Sigma non-opioid intracellular receptor 1 (Sigmar1, Rattus norvegicus, UniProt Q9R0C9); radioligand binding; rat).
With `COC(=O)C1(C)C=C(C(=O)OCc2ccccc2)C(=O)C1` (stereo not shown) the Ki was 2.1 ± 0.3 µM (MAPK8; D-peptide displacement, fluorescence polarization).
With `N#Cc1cccc(C(=O)N2C[C@H](O)C[C@H]2C(=O)NCc2ccc(-c3cnco3)cc2)c1` the Ki was 35.1 µM (von Hippel-Lindau disease tumor suppressor, with elongin B, C (VHL, Homo sapiens, UniProt P40337); inhibitor, fluorescence polarization; VHL-elonginB-elonginC complex; 1% DMSO, added: FAM-DEALA-Hyp-YIPD peptide).
`CCCCCCCCC(CCCCCC=CCCCCCC(CCCCCCCC)C(=O)OCC1(CO)CC(=C(C)C)C(=O)O1)C(=O)OCC1(CO)CC(=C(C)C)C(=O)O1` (racemic) has a Ki of 0.0132 ± 0.0019 µM (PRKCD; binding, [3H]PDBu competition; added: phosphatidylserine 100 µg/mL).
For `CCCCCCCCCCCCCC[C@@H](O)[C@@H](O)[C@H](CO[C@H]1O[C@H](CO)[C@H](O)[C@H](O)[C@H]1O)NC(=O)CCCCCc1ccccc1`, the Ki was 2.1 ± 0.8 µM (Cd1d1, dimeric Ig fusion (Mus musculus, UniProt P11609); binding, competitive microarray binding; added: printed glycolipid 100 µM).
`CCn1nccc1N=CC1=Cc2cc3c(cc2[C@@H](c2cc(OC)c(OC)c(OC)c2)[C@@H]1C(=O)OC)OCO3` gave a selectivity index of > 3.9 (Leishmania infantum; Alamar Blue; HepG2; baseline: CC50 HepG2 over EC50 amastigotes).
`O=C(O)c1cc(C(=O)N[C@@H](Cc2cnc[nH]2)C(=O)O)cc([C@H]2CCN[C@@H]2C(=O)O)c1` gave a Ki of 6.23 ± 2.69 µM (Glutamate receptor ionotropic, kainate 3; binding, radioligand binding; Sf9 membranes; homomeric receptor, added: [3H]kainate).
The Ki of `COCCOc1cccc(Oc2cccc3nc(-c4cn(-c5ccc(O)c(F)c5)nn4)ccc23)c1` is reported as < 0.1 µM (Macrophage migration inhibitory factor (MIF, Homo sapiens, UniProt P14174); tautomerase activity, inhibitor; added: HPP substrate).
`Cc1cc(NC(=O)c2cccc(NC(=O)C3=CC(C)(C)CCC3=O)c2)ccc1Nc1nccc(-c2cccnc2)n1` has a Ki of 0.081 µM (MAPK8; SPR two-step reversible model).
`COC(=O)[C@@]1(C)C=C(C(=O)OCc2ccccc2)C(=O)CC1` has a Ki of 4.8 ± 0.4 µM (Mitogen-activated protein kinase 14 (MAPK14, Homo sapiens, UniProt Q16539); D-peptide displacement, fluorescence polarization).
The Ki of `CCCCCCCCC(CCCCCCCCC=CCCCCCCCCC(CCCCCCCC)C(=O)OCC1(CO)CC(=C(C)C)C(=O)O1)C(=O)OCC1(CO)CC(=C(C)C)C(=O)O1` (racemic) is reported as 0.0123 ± 0.0021 µM (PRKCD; binding, [3H]PDBu competition; added: phosphatidylserine 100 µg/mL).
For `CC1(C)C(=CC=C2CCCC(C=CC3=[N+](CCCCS(=O)(=O)O)c4ccc(S(=O)(=O)O)cc4C3(C)C)=C2Oc2ccc(S(=O)(=O)O)cc2)N(CCCCCC(=O)NCCCCC(NC(=O)CCCCCCC(=O)NCCCC[C@H](NC(=O)N[C@@H](CCC(=O)O)C(=O)O)C(=O)O)C(=O)O)c2ccc(S(=O)(=O)[O-])cc21` (stereo partly shown), the Ki was 2e-05 ± 5e-06 µM (Glutamate carboxypeptidase 2 (FOLH1, Homo sapiens, UniProt Q04609); enzyme activity, inhibitor; compound in water, added: [3H]NAAG 30 nM).
`Cc1ncsc1-c1ccc([C@H](C)NC(=O)[C@@H]2C[C@@H](O)CN2C(=O)[C@@H](NC(=O)CCCCCCC(=O)N2CCN(C[C@]3(C)CCC(c4ccc(Cl)cc4)=C(CN4CCN(c5ccc(C(=O)NS(=O)(=O)c6ccc(N[C@H](CCN7CCOCC7)CSc7ccccc7)c(S(=O)(=O)C(F)(F)F)c6)cc5)CC4)C3)CC2)C(C)(C)C)cc1`: liver steatosis “decreased” (STAM mice NASH-HCC model, liver; day 150, treated days 90-150).
With `CCCCNCC1=Cc2cc3c(cc2[C@@H](c2cc(OC)c(OC)c(OC)c2)[C@@H]1C(=O)OC)OCO3` the selectivity index was 0.2 (Leishmania infantum; Alamar Blue; HepG2; baseline: CC50 HepG2 over EC50 amastigotes).
`CCOC(=O)NC(=O)/C(C#N)=C/c1ccc(Cl)cc1` gave a Ki of 23 ± 0.7 µM (PRKCA-binding protein, PDZ domain (Pick1, Rattus norvegicus, UniProt Q9EP80); binding, fluorescence polarization; added: labelled hDAT C-terminal peptide).
With `CCOC(=O)C1=CC(C(=O)OCC)(c2ccc(Br)cc2)CCC1=O` (stereo not shown) the Ki was 8.1 ± 3.2 µM (MAPK8; docking peptide binding, competitive inhibitor, fluorescence polarization; added: labelled JIP1 peptide).
The Ki of `c1ccc(Cc2noc(-c3cccc(OC4CCNCC4)c3)n2)cc1` is reported as 18 µM (Glycylpeptide N-tetradecanoyltransferase 1 (NMT1, Homo sapiens, UniProt P30419); enzyme activity, inhibitor, CPM fluorescence).

Some of these lines once more:
For `CC1(C)C(=CC=C2CCCC(C=CC3=[N+](CCCCS(=O)(=O)O)c4ccc(S(=O)(=O)O)cc4C3(C)C)=C2Oc2ccc(S(=O)(=O)O)cc2)N(CCCCCC(=O)NCCCCC(NC(=O)CCCCCCC(=O)NCCCC[C@H](NC(=O)N[C@@H](CCC(=O)O)C(=O)O)C(=O)O)C(=O)O)c2ccc(S(=O)(=O)[O-])cc21` (stereo partly shown), the Ki was 2e-05 ± 5e-06 µM (Glutamate carboxypeptidase 2 (FOLH1, Homo sapiens, UniProt Q04609); enzyme activity, inhibitor; compound in water, added: [3H]NAAG 30 nM).
`Cc1ncsc1-c1ccc([C@H](C)NC(=O)[C@@H]2C[C@@H](O)CN2C(=O)[C@@H](NC(=O)CCCCCCC(=O)N2CCN(C[C@]3(C)CCC(c4ccc(Cl)cc4)=C(CN4CCN(c5ccc(C(=O)NS(=O)(=O)c6ccc(N[C@H](CCN7CCOCC7)CSc7ccccc7)c(S(=O)(=O)C(F)(F)F)c6)cc5)CC4)C3)CC2)C(C)(C)C)cc1`: liver steatosis “decreased” (STAM mice NASH-HCC model, liver; day 150, treated days 90-150).
With `CCCCNCC1=Cc2cc3c(cc2[C@@H](c2cc(OC)c(OC)c(OC)c2)[C@@H]1C(=O)OC)OCO3` the selectivity index was 0.2 (Leishmania infantum; Alamar Blue; HepG2; baseline: CC50 HepG2 over EC50 amastigotes).
